# Results from different studies.
# Every numbered part comes from another study and shows a few of its results, in no order.

# Block 1
# Target: RING finger protein unkempt homolog, zinc fingers 1-6, GST-SBP tag (UNK, Homo sapiens, UniProt Q9C0B0, residues 30-357)
# Method: RNA Bind-n-Seq
# Molecule type: RNA
# Medium: in vitro
# Concentration: not given
# Notes: RNA with constant flanks, human and mouse sites, ends assumed
# Baseline: input RNA pool
# Reading: higher = stronger binding
# Constant ends, left off below: GGGAGUUCUACAGUCCGACGAUC … CAACAGAGGAUUGAGCAUCA
# Target sequence (chain): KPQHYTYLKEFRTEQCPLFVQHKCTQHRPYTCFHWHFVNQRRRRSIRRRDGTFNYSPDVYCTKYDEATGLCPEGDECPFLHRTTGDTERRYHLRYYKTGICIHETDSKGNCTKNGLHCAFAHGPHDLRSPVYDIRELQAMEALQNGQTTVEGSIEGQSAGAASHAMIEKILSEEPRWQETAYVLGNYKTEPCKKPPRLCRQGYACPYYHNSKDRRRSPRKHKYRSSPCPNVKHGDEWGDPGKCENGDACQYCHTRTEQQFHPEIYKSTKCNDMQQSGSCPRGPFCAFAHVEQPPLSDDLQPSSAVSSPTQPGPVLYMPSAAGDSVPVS
Sequence,bound/input enrichment
AAUGACGUGGAGCUUUAUGGACAAUACCUUGAGAGGUUAAAACAGUUCGUGUCACAGGAACUGGUAAAUUUGUAAACUACUCUGUAAAUUUGCAGACUGGGUUUUCUUUUCUUGCUGAAC,0.153 ratio
CUCCGAGCUGCUAAUAUUCUUGUAGGAGAAAAUCUUAUAUGCAAAAUAGCAGAUUUUGGCUUAGCAAGAUUAAUUGAAGACAAUGAAUACACGGCAAGACAAGGUGCAAAAUUUCCAAUC,0.146 ratio
GCAGGAGUCCGCCAGCAGGAGGGGGAGAGUCGGCUCAACCUGGUGCAGAGAAAUGUCAACGUGUUCAAGUUCAUCAUUCCUCAGAUCGUCAAGUACAGCCCUGACUGCACCAUCAUCGUG,0.0815 ratio
GCUAUGAAAAGGGGAGAGCCUGCCAUCUACAGGCCAUUAGAUCCAAAGCCAUUCCCAAAUUAUAGAGCUAAUUACAACUUUCGGGGCAUGUACAAUCAGAGGUAUCAUUGCCCAGUGCCU,1.23 ratio
AUGGACUUUGAAUUUGCUGCCUGGCAGAUGCUCUACCUGUUCACAUCCCCACAGAGAGUUUACAGAAAUUUUCAUUAUCGAAAACAGACGAAGGACCAGUGGGCCAGAGAUGACCCUGCU,0.314 ratio

# Block 2
# Target: Interferon regulatory factor 7, full length, phosphomimetic (IRF7, Homo sapiens, UniProt Q92985, residues 1-503, S101K/S471D/S472D/S475D/S476D/S477D/S483D/S484D/S487D)
# Method: protein-binding microarray
# Molecule type: double-stranded DNA, one strand shown
# Medium: in vitro
# Concentration: 250 nM
# Notes: 60-bp whole probe
# Together with: salmon DNA 0.4 mg/ml
# Baseline: random background probes
# Reading: higher = stronger binding
# Residues (chain): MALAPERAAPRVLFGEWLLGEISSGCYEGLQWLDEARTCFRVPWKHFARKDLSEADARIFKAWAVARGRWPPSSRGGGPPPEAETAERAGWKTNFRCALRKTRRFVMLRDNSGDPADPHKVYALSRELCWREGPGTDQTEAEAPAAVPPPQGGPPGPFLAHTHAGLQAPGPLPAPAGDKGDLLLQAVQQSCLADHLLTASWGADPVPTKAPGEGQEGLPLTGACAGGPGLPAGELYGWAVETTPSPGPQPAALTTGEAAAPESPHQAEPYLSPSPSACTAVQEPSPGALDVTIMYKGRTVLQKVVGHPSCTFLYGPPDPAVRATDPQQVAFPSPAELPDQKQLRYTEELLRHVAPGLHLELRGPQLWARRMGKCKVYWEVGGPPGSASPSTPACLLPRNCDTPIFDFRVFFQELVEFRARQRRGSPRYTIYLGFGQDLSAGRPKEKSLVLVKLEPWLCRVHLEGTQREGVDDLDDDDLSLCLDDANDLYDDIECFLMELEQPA
Sequence,log fluorescence
GCCTAGCACTTAGGTTTCGACATTGGGTTAGTGCTAGTCTTGATTCGCTTGACGCTGCTG,6.66 z-score
GCCTAGCACGATGATTTCGGGTATCGAGACGTGCTAGTCTTGATTCGCTTGACGCTGCTG,0.715 z-score
GCCTAGCACTTAGGTTTCGAAACTGGGTTAGTGCTAGTCTTGATTCGCTTGACGCTGCTG,6.78 z-score
GCCTAGCACTTTGCTTTCCTTTGCTTTCTGTGCTAGGTCTTGATTCGCTTGACGCTGCTG,0.933 z-score

# Block 3
# Target: Histone acetyltransferase KAT6A, winged helix 1, GST fusion (KAT6A, Homo sapiens, UniProt Q92794, residues 1-85)
# Method: protein binding microarray
# Molecule type: double-stranded DNA, one strand shown
# Medium: in vitro
# Concentration: not given
# Notes: 8-mer, flanks averaged, mean of 2 arrays, mostly near background
# Baseline: not given
# Reading: higher = stronger binding
# Construct (chain): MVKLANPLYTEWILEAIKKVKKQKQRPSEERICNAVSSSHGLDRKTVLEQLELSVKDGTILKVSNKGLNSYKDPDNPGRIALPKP
Sequence,E-score
AGGCGTCA,-0.0558
CAGCATCG,-0.0876
AGCGTCCA,-0.0145
GGTGTGTA,-0.109

# Single results of other studies
Substance,target,assay,test system,conditions,how to read,quantity,value
"PhoQ, residues 284 288 289 292 302 303 SSTMSV","PhoP, residues 12 14 15 18 19 LYHSL (Escherichia coli, UniProt P23836)","Sort-seq, item: YFP reporter",E. coli,"PhoQ-PhoP variant library, together with: 10 µM Mg2+","baseline: high Mg2+ state, higher = stronger signaling",fold induction,9.55
